Results gathered from unrelated publications.
Each line is one published result; not all experiments were run side by side. ± marks the error that the study gave.
Nicotinic acetylcholine receptor alpha9/alpha10: Nicotinic acetylcholine receptor alpha9/alpha10 (Rattus norvegicus, UniProt P43144+Q9JLB5)

[Ca]
Hill coefficient (KCNN4/CALM1 (Homo sapiens, UniProt O15554+P0DP23); activator, inside-out patch clamp): 2.9

N#Cc1ccc2[nH]cc(CCCCN3CCN(c4ccc5oc(C(N)=O)cc5c4)CC3)c2c1
Hill coefficient (Sodium-dependent serotonin transporter (SLC6A4, Homo sapiens, UniProt P31645, F556A/Y95F); [3H]5-HT uptake, inhibitor; COS-7): 1.1 ± 0.14

O=C1Nc2c(ccc(Cl)c2Cl)C1=NO
Hill coefficient (KCNN4/CALM1 (Homo sapiens, UniProt O15554+P0DP23, L185A/S181A); activator, whole-cell patch clamp; HEK293 (S181A-L185A mutant)): 1.6

Nc1nc2c(ncn2[C@@H]2O[C@@H]3COP(=O)(O)O[C@H]3[C@H]2O)c(=O)[nH]1
Hill coefficient (Cone cGMP-gated channel (Morone saxatilis, UniProt Q3I0N1+Q3I0N2); channel current, agonist, suction electrode; cone outer segments; added: 5 µM Ca2+): 2.19 ± 0.39

c1ccc(C(NCc2cccnc2)(c2ccccc2)c2ccccc2)cc1
Hill coefficient (Potassium voltage-gated channel subfamily KQT member 1 (KCNQ1, Homo sapiens, UniProt P51787); ion current, inhibitor, whole-cell patch clamp; tsA201; tail current, no correction): 0.83

CN(C)C(=O)C(CCN1CCC(O)(c2ccc(Cl)cc2)CC1)(c1ccccc1)c1ccccc1
Hill coefficient (Calcium-activated potassium channel subunit alpha-1, with LRRC26 γ1 subunit (KCNMA1, Homo sapiens, UniProt Q12791); BK channel conductance, inside-out patch clamp; BKα/γ1, Vm 20 mV, nominally Ca2+-free): 0.945 ± 0.22

COc1cc(C(=O)NS(=O)(=O)c2ccccc2C)ccc1Cc1cn(C)c2ccc(NC(=O)OC3CCCC3)cc12
Hill coefficient (LRRC8A/LRRC8C (Homo sapiens, UniProt Q8IWT6+Q8TDW0, L134K/L136K); whole-cell patch clamp; HCT116 LRRC8-/- transfected; at +100 mV): 0.99

Cc1ccc(NC(=O)/C=C/c2cccs2)cc1
Hill coefficient (Nicotinic acetylcholine receptor alpha9/alpha10; inhibitor; added: ACh 100 µM): 1.7 ± 0.2

O=C(Nc1cccc2c(=O)cc(-c3nnn[nH]3)oc12)c1ccc(OCCCCc2ccccc2)cc1
Hill coefficient (LRRC8A/LRRC8C (Homo sapiens, UniProt Q8IWT6+Q8TDW0, E6A); whole-cell patch clamp; HCT116 LRRC8-/- expressing heteromers; +100 mV): 1.39

Cc1ccc(N(C)C(=O)/C=C/c2ccco2)cc1
Hill coefficient (Nicotinic acetylcholine receptor alpha9/alpha10; inhibitor; added: ACh 10 µM): 1.6 ± 0.2

Cc1nccn1CC1CCc2c(c3ccccc3n2C)C1=O (centres unmarked)
Hill coefficient (5-hydroxytryptamine receptor 3A (Htr3a, Mus musculus, UniProt P23979, W90X); antagonist, voltage clamp; Xenopus oocytes): -1.3 ± 0.1
